Assay results pooled from the literature.
Each line is one published result; not all experiments were run side by side. ± gives the spread as reported.

SMILES	test	test system	conditions	half-life [h]
N=C(N)NCCC[C@@H]1NC(=O)[C@H](CO)NC(=O)[C@@H](NC(=O)[C@H](CO)NC(=O)[C@H](CO)NC(=O)[C@H](Cc2c[nH]c3ccccc23)NC(=O)CNC(=O)[C@H](CO)NC(=O)[C@@H](N)Cc2c[nH]c3ccccc23)CSSC[C@@H](C(=O)NCC(=O)O)NC(=O)[C@H](CO)NC1=O		patients, plasma	intravenous, 10 mg/kg, thrice weekly, mean	0.286
Cc1c(Cc2ccc(Cl)c(OC(C)C(=O)O)c2)c2ccc(C(=O)NC(C)c3ccc(C(C)(C)C)cc3)cc2n1CC1CC1 (centres unmarked)		mouse liver microsomes	1 µM, together with: microsomes 1 mg/mL	> 1
O=Cc1cc(C(F)(F)F)cc(C(F)(F)F)c1	chemical stability, HPLC-MS	borate buffered saline	pH 10.2, no N-acetyl-lysine	5.7
O=C(NC1CCC(F)(F)CC1)C(c1cncnc1)N(C(=O)C(F)Cl)c1ccc(OC(F)(F)F)cc1 (centres unmarked)		human liver microsomes	concentration not given, pH 7.4	> 2.42
COc1ccc2c(c1)C(=O)C(=C[O-])C2.[Na+]	chemical stability, HPLC-MS	borate buffered saline	pH 10.2, no N-acetyl-lysine	35.4
Cc1c(Cc2cccc(OC(C)(C)C(=O)O)c2)c2ccc(C(=O)N[C@@H](C)c3ccc(C(C)(C)C)cc3)cc2n1CC1CCC1		mouse liver microsomes	1 µM, together with: microsomes 1 mg/mL	> 1
N[C@@H](CC(=O)O)C(=O)OC(C(=O)O)c1ccc(Br)cc1[N+](=O)[O-] (mixture of isomers)	hydrolysis, 1H NMR	aqueous citrate-ammonium sulfate, 12.5% DMSO-d6	pH 4.2, room temperature, dark, isomer B	19.3 ± 0.6
CC(C)C[C@@H]1NC(=O)[C@H](C(C)C)NC(=O)[C@H](Cc2c[nH]c3ccccc23)NC(=O)[C@@H]2CSSC[C@H](NC(=O)[C@H](Cc3ccc(O)cc3)NC(=O)[C@H](C(C)C)NC(=O)[C@H](CCCNC(=N)N)NC(=O)CNC(=O)[C@H]3CCCN3C1=O)C(=O)N[C@@H](CCC(N)=O)C(=O)N1CCC[C@H]1C(=O)NCC(=O)N[C@@H](Cc1c[nH]c3ccccc13)C(=O)N2		simulated gastric fluid	pH 1.6	5.2
C=CC(=O)Nc1cccc(Cn2ncc3cnc(Nc4cnn(CCOC)c4)nc32)c1		Beagle dog whole blood	5 µM	1.76
O=C(N1CCCCC1)C12CC(c3ccccc3)(C1)C2(F)F	metabolic stability	human liver microsomes	2 µM, pH 7.4	1.43
Cc1c(Cc2cc(F)cc(OC(C)(C)C(=O)O)c2)c2ccc(C(=O)N[C@@H](C)c3ccc(C(C)(C)C)cc3)cc2n1CC1CCC1		human liver microsomes	1 µM, together with: microsomes 1 mg/mL	> 1
Brc1ccncc1			pH 7.4	76.6
O=C(NCc1ccc2c(c1)CN(C(=O)c1cc(-c3ccccc3)no1)C2)C1C=CC=CC=C1		CD-1 mouse liver microsomes	pH 7.4, together with: NADPH	0.39
Cc1c(Cc2ccc(Cl)c(O[C@@H](C)C(=O)O)c2)c2ccc(C(=O)N[C@@H](C)c3ccc(C(C)(C)C)cc3)cc2n1CC1CCC1		human liver microsomes	1 µM, together with: microsomes 1 mg/mL	> 1
C#Cc1nccs1			pH 7.4	80.9
CCn1c(C)c(Cc2ccc(Cl)c(O[C@H](C)C(=O)O)c2)c2ccc(C(=O)N[C@@H](C)c3ccc(C(C)(C)C)cc3)cc21		mouse liver microsomes	1 µM, together with: microsomes 1 mg/mL	> 1
CCCCCCCCCCCCCC(=S)NCCCC[C@H](NS(C)(=O)=O)C(=O)N[C@@H](C)C(=O)N[C@@H](CCCNC(=N)N)C(N)=O		male human serum	150 µM, 37 °C	2.8 ± 0.3

A few entries again:
SMILES	test	test system	conditions	half-life [h]
O=C(NC1CCC(F)(F)CC1)C(c1cncnc1)N(C(=O)C(F)Cl)c1ccc(OC(F)(F)F)cc1 (centres unmarked)		human liver microsomes	concentration not given, pH 7.4	> 2.42
COc1ccc2c(c1)C(=O)C(=C[O-])C2.[Na+]	chemical stability, HPLC-MS	borate buffered saline	pH 10.2, no N-acetyl-lysine	35.4
Cc1c(Cc2cccc(OC(C)(C)C(=O)O)c2)c2ccc(C(=O)N[C@@H](C)c3ccc(C(C)(C)C)cc3)cc2n1CC1CCC1		mouse liver microsomes	1 µM, together with: microsomes 1 mg/mL	> 1
